Results of several laboratories.
Every numbered part comes from another study and shows a few of its results, in no order. Several values in a cell are separate wells, animals, samples, runs or records.
Sequence of UniProt Q9H2G2 (whole entry, looked up): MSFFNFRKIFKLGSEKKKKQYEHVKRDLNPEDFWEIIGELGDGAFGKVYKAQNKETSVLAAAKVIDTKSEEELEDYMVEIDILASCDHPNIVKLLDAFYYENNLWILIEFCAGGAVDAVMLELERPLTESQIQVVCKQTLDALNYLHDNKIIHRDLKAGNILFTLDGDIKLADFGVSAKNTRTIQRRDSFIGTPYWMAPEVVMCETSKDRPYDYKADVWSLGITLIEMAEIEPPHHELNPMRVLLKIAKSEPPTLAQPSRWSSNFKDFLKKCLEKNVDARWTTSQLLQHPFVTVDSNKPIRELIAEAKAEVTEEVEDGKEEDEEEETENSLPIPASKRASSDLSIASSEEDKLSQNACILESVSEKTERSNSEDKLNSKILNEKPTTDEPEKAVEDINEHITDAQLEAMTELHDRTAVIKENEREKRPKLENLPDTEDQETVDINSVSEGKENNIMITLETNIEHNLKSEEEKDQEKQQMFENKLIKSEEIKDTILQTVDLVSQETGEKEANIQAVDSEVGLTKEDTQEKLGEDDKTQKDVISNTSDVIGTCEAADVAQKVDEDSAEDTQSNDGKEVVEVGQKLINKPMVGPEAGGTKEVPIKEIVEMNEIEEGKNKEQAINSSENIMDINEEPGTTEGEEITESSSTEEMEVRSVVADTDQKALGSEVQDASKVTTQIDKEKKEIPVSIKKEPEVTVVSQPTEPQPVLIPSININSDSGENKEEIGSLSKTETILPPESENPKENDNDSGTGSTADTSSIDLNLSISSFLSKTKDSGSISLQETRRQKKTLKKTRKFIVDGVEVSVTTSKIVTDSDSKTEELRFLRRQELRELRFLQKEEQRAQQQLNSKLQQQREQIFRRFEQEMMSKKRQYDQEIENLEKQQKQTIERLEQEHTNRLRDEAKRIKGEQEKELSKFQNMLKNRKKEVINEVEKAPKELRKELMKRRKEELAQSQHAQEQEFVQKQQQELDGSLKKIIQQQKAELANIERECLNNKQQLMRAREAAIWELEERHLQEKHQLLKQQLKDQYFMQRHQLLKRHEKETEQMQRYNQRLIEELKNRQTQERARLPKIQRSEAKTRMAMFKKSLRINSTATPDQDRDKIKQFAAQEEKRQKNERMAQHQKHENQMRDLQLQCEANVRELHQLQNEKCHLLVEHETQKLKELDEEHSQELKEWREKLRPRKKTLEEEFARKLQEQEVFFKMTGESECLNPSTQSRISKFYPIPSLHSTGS
Sequence of UniProt P22607 (whole entry, looked up): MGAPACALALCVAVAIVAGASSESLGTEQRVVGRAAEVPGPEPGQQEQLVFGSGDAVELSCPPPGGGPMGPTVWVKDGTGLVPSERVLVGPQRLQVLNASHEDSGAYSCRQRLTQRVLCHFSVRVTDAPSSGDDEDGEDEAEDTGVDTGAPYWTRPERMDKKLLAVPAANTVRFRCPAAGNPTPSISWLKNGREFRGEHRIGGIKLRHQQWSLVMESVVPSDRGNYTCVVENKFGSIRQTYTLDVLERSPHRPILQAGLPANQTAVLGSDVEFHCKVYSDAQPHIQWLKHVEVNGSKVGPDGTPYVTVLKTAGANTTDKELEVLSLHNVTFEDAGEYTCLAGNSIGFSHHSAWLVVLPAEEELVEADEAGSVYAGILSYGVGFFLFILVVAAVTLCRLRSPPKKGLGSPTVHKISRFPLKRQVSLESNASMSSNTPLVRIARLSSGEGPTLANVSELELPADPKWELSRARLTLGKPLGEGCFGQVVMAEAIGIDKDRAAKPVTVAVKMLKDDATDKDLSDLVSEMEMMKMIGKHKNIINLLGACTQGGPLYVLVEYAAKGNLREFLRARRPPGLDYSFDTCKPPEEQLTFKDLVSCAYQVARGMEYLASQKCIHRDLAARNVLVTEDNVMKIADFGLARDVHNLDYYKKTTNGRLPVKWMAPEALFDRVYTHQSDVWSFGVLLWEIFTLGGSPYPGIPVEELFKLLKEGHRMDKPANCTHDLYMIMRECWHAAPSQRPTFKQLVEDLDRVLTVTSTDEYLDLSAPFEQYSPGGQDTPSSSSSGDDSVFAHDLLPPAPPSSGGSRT
Sequence of UniProt Q32MK0 (whole entry, looked up): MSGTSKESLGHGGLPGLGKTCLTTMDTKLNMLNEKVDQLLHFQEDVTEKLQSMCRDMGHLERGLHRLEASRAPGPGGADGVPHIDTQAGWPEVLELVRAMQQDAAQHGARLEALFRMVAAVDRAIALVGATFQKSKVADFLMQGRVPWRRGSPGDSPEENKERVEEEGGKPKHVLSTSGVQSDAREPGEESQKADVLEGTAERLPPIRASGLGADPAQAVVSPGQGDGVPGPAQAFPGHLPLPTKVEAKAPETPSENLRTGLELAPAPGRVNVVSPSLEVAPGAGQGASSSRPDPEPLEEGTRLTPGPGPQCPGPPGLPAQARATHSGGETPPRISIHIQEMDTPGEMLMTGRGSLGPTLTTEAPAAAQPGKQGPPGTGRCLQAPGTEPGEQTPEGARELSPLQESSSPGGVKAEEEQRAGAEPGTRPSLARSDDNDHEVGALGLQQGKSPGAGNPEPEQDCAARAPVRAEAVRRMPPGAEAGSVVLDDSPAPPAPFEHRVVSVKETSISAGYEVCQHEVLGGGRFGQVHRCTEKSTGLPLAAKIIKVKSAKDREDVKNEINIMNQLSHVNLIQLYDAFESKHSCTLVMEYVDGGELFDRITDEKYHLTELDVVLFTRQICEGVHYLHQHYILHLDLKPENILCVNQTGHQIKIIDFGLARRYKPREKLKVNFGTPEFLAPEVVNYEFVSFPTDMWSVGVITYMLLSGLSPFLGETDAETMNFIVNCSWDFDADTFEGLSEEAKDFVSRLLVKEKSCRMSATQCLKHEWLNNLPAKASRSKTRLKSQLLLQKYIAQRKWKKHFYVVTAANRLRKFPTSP
Sequence of UniProt Q9BRS2 (whole entry, looked up): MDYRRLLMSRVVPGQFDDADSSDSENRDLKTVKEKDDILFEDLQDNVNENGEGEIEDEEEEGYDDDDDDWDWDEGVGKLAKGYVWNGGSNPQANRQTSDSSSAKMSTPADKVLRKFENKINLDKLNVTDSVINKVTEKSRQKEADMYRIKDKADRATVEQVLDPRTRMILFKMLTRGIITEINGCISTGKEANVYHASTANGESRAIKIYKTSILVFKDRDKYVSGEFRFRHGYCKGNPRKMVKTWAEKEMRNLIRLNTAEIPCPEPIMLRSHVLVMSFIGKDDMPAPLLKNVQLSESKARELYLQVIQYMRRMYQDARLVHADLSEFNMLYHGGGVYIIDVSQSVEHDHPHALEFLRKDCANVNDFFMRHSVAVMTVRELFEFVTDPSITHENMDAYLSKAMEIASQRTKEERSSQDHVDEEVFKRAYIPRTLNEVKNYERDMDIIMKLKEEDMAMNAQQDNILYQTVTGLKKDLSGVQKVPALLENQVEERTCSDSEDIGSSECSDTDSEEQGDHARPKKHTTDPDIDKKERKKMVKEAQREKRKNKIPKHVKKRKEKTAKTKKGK

Series 1
Target: Protein kinase C alpha type (PRKCA, Homo sapiens, UniProt P17252)
Read-out: enzyme activity
Action: inhibitor
Tested at: 0.5 µM
Reference: control
SMILES	remaining activity
O=c1c(-c2ccc(F)cc2)c(-c2ccncc2)[nH]n1-c1ccc(Cl)cc1	100%
O=C(O)/C=C/c1cc(Br)c(Br)c(Br)c1Br	79%
C[C@@H](N)[C@H]1CC[C@H](C(=O)Nc2ccncc2)CC1	97.8%
CCCCc1c(-c2ccc(O)cc2)[nH]c2nccnc12	83.7%
COc1cc2c(Nc3ccc(Br)cc3F)ncnc2cc1OCC1CCN(C)CC1	97.1%
O=C1NC(=O)/C(=C/c2ccc3c(c2)OC(F)(F)O3)S1	106%
CCN(CC)CCCCN1c2ccccc2Oc2ccc(Cl)cc21	83%
NC(=O)c1ccc(-c2nc(-c3ccc4c(c3)OCCO4)c(-c3ccccn3)[nH]2)cc1	83.1%
CC(C)n1cnc2c(Nc3cccc(Cl)c3)nc(NCCO)nc21	78.6%
FC(F)(F)c1ccc(/C=C/c2nc(COc3ccc(CCCCn4ccnn4)cc3)co2)cc1	111%
O=C1c2ccccc2-c2nc3nnnn3nc21	91.4%
NC(=O)c1cccc(-c2cc(Nc3ccc(OC(F)(F)F)cc3)ncn2)c1	77.4%
Nc1nc(Nc2ccc(S(N)(=O)=O)cc2)nn1C(=S)Nc1c(F)cccc1F	46.2%
Clc1ccc(Nc2nnc(Cc3ccncc3)c3ccccc23)cc1	75.8%
O=C(c1ccccc1)c1ccc(N2CCOCC2)cc1O	84.2%
CNc1cc2c(Nc3cccc(Br)c3)ncnc2cn1	101%
CC(C)(C)c1nc2c3cc[nH]c(=O)c3c3cc(F)ccc3c2[nH]1	65.6%
COc1cc2c(N3CCN(C(=O)Nc4ccc(OC(C)C)cc4)CC3)ncnc2cc1OCCCN1CCCCC1	109%
O=Nc1c(-c2c(O)[nH]c3ccccc23)[nH]c2ccccc12	97.7%
CC(C)N(CCC(=O)c1ccc2ccccc2c1)Cc1ccccc1	107%
N#C/C(=C(/N)SC1C=CC=CC1)c1cccc(C(O)c2ccncc2)c1 (stereo not drawn)	99.5%

Series 2
Structure (SMILES): COc1ccc(-c2c(Nc3ccccn3)[nH]c3c(C4=CCCCC4)c(-c4ccccc4)nn3c2=O)cc1
Species: cancer patients
Medium: plasma
Route: oral
Time: cycle 0 day -3
Notes: single dose
dose	Cmax, geometric mean
200 mg	1530 ng/mL
400 mg	1260 ng/mL
50 mg	521 ng/mL
150 mg	1460 ng/mL
100 mg	1300 ng/mL

Series 3
Compound: C[C@H](NC(=O)c1cnc2n1[C@](C)(Cc1ccc(C#N)cc1)C(=O)N2c1cc(Cl)c(F)c(Cl)c1)C(=O)NC1(c2ccccn2)CC1
Tested at: 1 µM
target	read-out	technique	remaining binding
FLT3 (Homo sapiens, UniProt P36888, F691L/ITD)	cell-free assay	competition with immobilised ligand	100%
RIOK1 (Homo sapiens, UniProt Q9BRS2)	cell-free assay	competition with immobilised ligand	100%
CAMK1G (Homo sapiens, UniProt Q96NX5)	cell-free assay	competition with immobilised ligand	100%
ZAP70 (Homo sapiens, UniProt P43403)	cell-free assay	competition with immobilised ligand	100%
EIF2AK1 (Homo sapiens, UniProt Q9BQI3)	cell-free assay	competition with immobilised ligand	93%
CAMK2G (Homo sapiens, UniProt Q13555)	cell-free assay	competition with immobilised ligand	100%
FGFR3 (Homo sapiens, UniProt P22607)	cell-free assay	competition with immobilised ligand	100%
CDC42BPG (Homo sapiens, UniProt Q6DT37)		competition binding	100%
MAPK1 (Homo sapiens, UniProt P28482)	cell-free assay	competition with immobilised ligand	100%
PIK3C2G (Homo sapiens, UniProt O75747)	cell-free assay	competition with immobilised ligand	100%
MYLK3 (Homo sapiens, UniProt Q32MK0)	cell-free assay	competition with immobilised ligand	100%
ULK1 (Homo sapiens, UniProt O75385)	cell-free assay	competition with immobilised ligand	100%
COQ8A (Homo sapiens, UniProt Q8NI60)	cell-free assay	competition with immobilised ligand	100%
MARK1 (Homo sapiens, UniProt Q9P0L2)	cell-free assay	competition with immobilised ligand	100%
NUAK1 (Homo sapiens, UniProt O60285)	cell-free assay	competition with immobilised ligand	99%
SLK (Homo sapiens, UniProt Q9H2G2)	cell-free assay	competition with immobilised ligand	100%
PRKCQ (Homo sapiens, UniProt Q04759)	cell-free assay	competition with immobilised ligand	100%
PIK3CA (Homo sapiens, UniProt P42336, I800L)	cell-free assay	competition with immobilised ligand	100%
KIT (Homo sapiens, UniProt P10721, V559D)	cell-free assay	competition with immobilised ligand	91%
CHEK2 (Homo sapiens, UniProt O96017)	cell-free assay	competition with immobilised ligand	100%

Series 4
Structure (SMILES): CC(C)(C(=O)O)[C@H](NC(=O)Cc1cccc(I)c1)c1ccc2oc(=O)[nH]c2c1
Technique: Incucyte 3D growth
Tested at: 30 µM
Reading: higher = more growth
cell line	time	spheroid area
PC-9	216 h	1.81e+09 a.u. and 1.74e+09 a.u. and 1.76e+09 a.u. and 1.85e+09 a.u. and 1.78e+09 a.u. and 1.83e+09 a.u.
NCI-H1437	114 h	2.61e+07 a.u. and 2.66e+07 a.u. and 2.81e+07 a.u. and 2.53e+07 a.u. and 2.48e+07 a.u. and 3.16e+07 a.u.
MEL-JUSO	48.52 h	1.32e+07 a.u. and 1.06e+07 a.u. and 1.13e+07 a.u. and 1.17e+07 a.u. and 1.29e+07 a.u. and 1.23e+07 a.u.
MEL-JUSO	426.52 h	7.56e+07 a.u. and 2.9e+07 a.u. and 3.15e+07 a.u. and 2.81e+07 a.u. and 2.82e+07 a.u. and 5.14e+07 a.u.
MEL-JUSO	504.52 h	7.82e+07 a.u. and 1.68e+07 a.u. and 2.53e+07 a.u. and 5.72e+07 a.u. and 3.24e+07 a.u. and 2.72e+07 a.u.
A375	336.52 h	1.68e+08 a.u. and 1.63e+08 a.u. and 1.69e+08 a.u. and 1.86e+08 a.u. and 1.74e+08 a.u. and 1.95e+08 a.u.
MEL-JUSO	408.52 h	7.26e+07 a.u. and 2.99e+07 a.u. and 3.75e+07 a.u. and 4.26e+07 a.u. and 3.7e+07 a.u. and 3.68e+07 a.u.
A375	54.52 h	2.85e+07 a.u. and 2.87e+07 a.u. and 3.11e+07 a.u. and 3e+07 a.u. and 3.32e+07 a.u. and 2.18e+07 a.u.

Some of these lines once more (series 1):
SMILES	remaining activity
CC(C)n1cnc2c(Nc3cccc(Cl)c3)nc(NCCO)nc21	78.6%
FC(F)(F)c1ccc(/C=C/c2nc(COc3ccc(CCCCn4ccnn4)cc3)co2)cc1	111%
O=C1c2ccccc2-c2nc3nnnn3nc21	91.4%
NC(=O)c1cccc(-c2cc(Nc3ccc(OC(F)(F)F)cc3)ncn2)c1	77.4%
Nc1nc(Nc2ccc(S(N)(=O)=O)cc2)nn1C(=S)Nc1c(F)cccc1F	46.2%
